# Measurements of several laboratories.
# Compare with care: the assays were run in different laboratories. Several values in a cell are separate wells, animals, samples, runs or records. ± marks the error that the study gave.
# ALB: Albumin (ALB, Homo sapiens, UniProt P02768)
# Sequence of UniProt Q9EP73 (whole entry, looked up): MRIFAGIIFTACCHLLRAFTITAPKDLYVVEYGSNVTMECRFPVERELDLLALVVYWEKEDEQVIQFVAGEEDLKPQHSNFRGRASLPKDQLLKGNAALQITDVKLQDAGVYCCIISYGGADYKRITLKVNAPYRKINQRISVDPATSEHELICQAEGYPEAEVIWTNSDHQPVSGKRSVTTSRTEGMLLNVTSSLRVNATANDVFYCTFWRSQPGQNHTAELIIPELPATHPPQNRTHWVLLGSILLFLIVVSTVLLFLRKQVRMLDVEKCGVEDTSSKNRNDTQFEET
# Sequence of UniProt Q15370 (whole entry, looked up): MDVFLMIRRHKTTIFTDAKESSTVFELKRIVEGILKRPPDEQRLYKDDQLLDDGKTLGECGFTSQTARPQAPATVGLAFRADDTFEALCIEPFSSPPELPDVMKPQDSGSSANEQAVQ
# Sequence of UniProt P07550 (whole entry, looked up): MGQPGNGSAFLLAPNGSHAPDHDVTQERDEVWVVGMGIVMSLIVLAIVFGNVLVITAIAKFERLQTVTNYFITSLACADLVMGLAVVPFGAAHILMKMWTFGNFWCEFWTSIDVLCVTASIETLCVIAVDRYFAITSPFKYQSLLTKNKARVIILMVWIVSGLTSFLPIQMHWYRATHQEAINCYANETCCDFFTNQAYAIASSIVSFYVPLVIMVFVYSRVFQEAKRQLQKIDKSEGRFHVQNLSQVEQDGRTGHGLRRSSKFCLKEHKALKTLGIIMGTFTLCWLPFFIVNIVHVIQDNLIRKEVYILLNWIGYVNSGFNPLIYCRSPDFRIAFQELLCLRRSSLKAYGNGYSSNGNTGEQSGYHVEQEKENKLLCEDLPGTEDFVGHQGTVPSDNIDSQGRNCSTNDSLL
# Sequence of UniProt Q7Z2W7 (whole entry, looked up): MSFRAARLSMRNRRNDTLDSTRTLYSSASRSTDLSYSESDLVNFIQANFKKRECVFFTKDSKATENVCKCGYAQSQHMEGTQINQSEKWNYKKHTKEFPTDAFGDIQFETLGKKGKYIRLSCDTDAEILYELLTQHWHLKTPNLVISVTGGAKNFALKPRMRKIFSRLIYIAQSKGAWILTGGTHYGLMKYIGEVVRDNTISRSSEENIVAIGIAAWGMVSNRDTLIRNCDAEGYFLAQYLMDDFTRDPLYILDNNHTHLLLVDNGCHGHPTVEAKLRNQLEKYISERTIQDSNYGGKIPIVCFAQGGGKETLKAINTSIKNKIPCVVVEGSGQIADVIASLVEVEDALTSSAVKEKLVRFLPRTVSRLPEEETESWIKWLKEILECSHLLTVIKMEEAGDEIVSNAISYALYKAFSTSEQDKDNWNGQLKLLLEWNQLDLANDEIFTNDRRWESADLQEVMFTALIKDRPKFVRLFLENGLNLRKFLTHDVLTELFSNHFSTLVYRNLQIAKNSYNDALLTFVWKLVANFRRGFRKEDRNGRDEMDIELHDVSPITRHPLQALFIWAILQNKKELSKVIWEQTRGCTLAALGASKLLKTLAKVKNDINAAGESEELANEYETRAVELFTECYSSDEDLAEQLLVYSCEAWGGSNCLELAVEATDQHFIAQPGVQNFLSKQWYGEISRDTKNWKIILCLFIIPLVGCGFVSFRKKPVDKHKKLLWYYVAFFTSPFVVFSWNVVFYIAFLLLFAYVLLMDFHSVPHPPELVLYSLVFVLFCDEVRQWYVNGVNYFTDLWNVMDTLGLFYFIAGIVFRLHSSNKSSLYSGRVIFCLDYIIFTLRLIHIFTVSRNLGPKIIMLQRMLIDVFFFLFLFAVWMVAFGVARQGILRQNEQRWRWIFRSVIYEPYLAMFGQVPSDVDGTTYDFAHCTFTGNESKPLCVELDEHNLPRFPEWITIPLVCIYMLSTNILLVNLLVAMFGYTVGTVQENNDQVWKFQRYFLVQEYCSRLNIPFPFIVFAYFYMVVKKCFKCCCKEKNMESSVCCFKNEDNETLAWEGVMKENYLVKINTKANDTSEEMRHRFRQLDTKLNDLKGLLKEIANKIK
# Sequence of UniProt O14733 (whole entry, looked up): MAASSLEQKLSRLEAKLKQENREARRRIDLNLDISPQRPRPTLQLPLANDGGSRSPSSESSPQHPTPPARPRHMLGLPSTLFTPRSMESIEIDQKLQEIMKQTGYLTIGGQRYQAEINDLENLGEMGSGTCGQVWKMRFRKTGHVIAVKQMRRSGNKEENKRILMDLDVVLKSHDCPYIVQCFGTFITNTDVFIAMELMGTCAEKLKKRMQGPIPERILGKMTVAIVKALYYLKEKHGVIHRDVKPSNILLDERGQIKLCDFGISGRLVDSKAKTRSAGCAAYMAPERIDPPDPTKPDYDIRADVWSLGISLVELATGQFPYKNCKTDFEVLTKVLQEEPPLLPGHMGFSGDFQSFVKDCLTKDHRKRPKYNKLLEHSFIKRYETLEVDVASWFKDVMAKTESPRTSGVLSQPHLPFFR
# Sequence of UniProt Q16566 (whole entry, looked up): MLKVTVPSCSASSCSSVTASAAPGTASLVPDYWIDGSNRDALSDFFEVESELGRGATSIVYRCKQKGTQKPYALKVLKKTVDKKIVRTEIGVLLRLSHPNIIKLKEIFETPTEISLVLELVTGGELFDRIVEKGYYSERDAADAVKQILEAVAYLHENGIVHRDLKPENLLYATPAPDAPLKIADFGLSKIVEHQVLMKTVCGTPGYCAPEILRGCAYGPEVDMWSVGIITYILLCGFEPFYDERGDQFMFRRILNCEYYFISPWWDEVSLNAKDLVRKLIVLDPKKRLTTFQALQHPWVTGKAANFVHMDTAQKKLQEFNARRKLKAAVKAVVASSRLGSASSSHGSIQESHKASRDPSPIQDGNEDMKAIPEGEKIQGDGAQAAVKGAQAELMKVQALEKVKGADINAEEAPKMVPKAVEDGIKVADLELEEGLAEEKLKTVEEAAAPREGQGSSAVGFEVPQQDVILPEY
# Sequence of UniProt P54756 (whole entry, looked up): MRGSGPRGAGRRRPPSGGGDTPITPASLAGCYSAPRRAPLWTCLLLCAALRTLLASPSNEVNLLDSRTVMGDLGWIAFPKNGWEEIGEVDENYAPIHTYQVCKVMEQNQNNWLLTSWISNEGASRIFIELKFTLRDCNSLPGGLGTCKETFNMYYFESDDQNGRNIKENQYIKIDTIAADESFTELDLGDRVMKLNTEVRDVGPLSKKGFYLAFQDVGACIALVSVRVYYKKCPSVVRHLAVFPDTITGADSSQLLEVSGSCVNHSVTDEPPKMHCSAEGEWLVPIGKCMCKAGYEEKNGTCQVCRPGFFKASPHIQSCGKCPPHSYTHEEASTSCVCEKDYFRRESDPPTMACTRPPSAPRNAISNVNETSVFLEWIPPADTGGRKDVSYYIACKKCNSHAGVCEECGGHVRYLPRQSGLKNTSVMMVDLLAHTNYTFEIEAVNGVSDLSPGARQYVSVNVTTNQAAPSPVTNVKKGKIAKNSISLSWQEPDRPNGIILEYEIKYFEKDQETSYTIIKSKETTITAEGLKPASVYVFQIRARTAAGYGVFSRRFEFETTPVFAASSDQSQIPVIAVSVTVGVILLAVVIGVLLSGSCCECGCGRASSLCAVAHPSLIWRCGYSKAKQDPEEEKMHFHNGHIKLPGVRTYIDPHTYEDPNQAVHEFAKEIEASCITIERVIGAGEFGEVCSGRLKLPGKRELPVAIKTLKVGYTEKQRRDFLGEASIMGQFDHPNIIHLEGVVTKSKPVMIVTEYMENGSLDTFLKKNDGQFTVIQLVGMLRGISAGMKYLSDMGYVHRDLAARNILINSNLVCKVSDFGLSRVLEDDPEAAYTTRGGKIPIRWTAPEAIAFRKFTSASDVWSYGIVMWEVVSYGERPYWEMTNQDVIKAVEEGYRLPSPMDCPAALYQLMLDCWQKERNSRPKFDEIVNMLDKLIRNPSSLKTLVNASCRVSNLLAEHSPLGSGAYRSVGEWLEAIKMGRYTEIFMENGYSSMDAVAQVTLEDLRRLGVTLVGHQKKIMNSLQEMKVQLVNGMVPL
# Sequence of UniProt Q6PIU2 (whole entry, looked up): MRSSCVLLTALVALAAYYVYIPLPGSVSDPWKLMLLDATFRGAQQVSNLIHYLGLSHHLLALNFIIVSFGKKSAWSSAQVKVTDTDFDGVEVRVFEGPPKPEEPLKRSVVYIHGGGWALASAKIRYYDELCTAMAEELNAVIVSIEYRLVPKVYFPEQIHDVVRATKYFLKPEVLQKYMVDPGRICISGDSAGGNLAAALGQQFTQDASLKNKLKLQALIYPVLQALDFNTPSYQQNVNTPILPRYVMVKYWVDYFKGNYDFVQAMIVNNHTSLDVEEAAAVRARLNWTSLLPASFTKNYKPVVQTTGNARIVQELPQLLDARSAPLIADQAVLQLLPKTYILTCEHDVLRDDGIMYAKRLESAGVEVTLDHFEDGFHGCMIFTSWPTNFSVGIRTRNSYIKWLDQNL
SMILES,target,assay,test system,setting,scale,endpoint,result
O=C(Nc1cccnn1)N1CCC(=Cc2cccc(Oc3ccc(C(F)(F)F)cn3)c2)CC1,"PTGER2 (Homo sapiens, UniProt P43116)","radioligand binding, inhibitor",,"50 µM, human, added: [3H]prostaglandin E2",,inhibition,35%
O=C(c1ccc(Cl)cc1)N1CCN2C(=O)N(OC(=O)N3CCOc4ccccc43)C(=O)C2C1 (centres unmarked),"NCEH1 (Homo sapiens, UniProt Q6PIU2)",MS-based ABPP,SW-620 conditioned medium,"10 µM, 1 h, 37 °C, mean protein ratio",relative to: compound over DMSO,probe labelling ratio,1.31
CCCC(=O)O,ALB,differential scanning calorimetry,,"concentration not given, second transition, HSA 15 µM",relative to: HSA alone,melting temperature change,-2.8 °C
CC[C@@H](C)[C@@H](NC(=O)[C@@H](Cc1ccc(O)cc1)NC(=O)[C@H]1CCCN1C(=O)[C@@H](CCCNC(=N)N)NC(=O)[C@H](N)Cc1c[nH]cn1)C(=O)N[C@H](C)C(=O)N[C@H](Cc1c[nH]cn1)C(=O)N[C@H](CCCNC(=N)N)C(=O)N[C@H](CCCCNC(=O)c1cccc(S(=O)(=O)F)c1)C(=O)N[C@H](Cc1ccc(O)cc1)C(=O)N[C@H](CO)C(=O)N[C@H](Cc1ccccc1)C(N)=O,"Programmed cell death 1 ligand 1, with PD-1 (Cd274, Mus musculus, UniProt Q9EP73)",PD-1-Fc binding,MC-38,"concentration not given, 48 h",,PD-L1 blocking rate,9.94% and 9.39% and 11.1%
CN1CCN(c2cc(-c3ccncc3)c(-c3ccc4ccccc4c3)nn2)CC1,"ADRB2 (Homo sapiens, UniProt P07550)","agonist, FLIPR",,12.5 µM,,activation,-2.8%
NCCc1c[nH]c2ccc(O)cc12,AANAT1 Rangifer tarandus,"substrate, DTNB colorimetric",,added: acetyl-CoA,,Km,160 ± 30 µM
COc1cc(-c2[o+]c3cc(O)cc(O)c3cc2O[C@@H]2O[C@H](CO)[C@@H](O)[C@H](O)[C@H]2O)cc(OC)c1O,ALB,van't Hoff analysis,,concentration not given,,binding entropy change,0.05 kJ/(mol·K)
[2H]c1c([2H])c([C@]2([2H])CCCN2C(=O)C(C)(C)Oc2ccc3cn[nH]c3c2)c([2H])c([2H])c1C([2H])([2H])[2H],"EPHA5 (Homo sapiens, UniProt P54756)",KINOMEscan,,1 µM,relative to: DMSO control,remaining binding,87%
COc1cc(Nc2ncc(F)c(Nc3ccc4c(n3)NC(=O)C(C)(C)O4)n2)cc(OC)c1OC,"CAMK4 (Homo sapiens, UniProt Q16566)",KINOMEscan,,10 µM,,inhibition,0%
O=C(Nc1cnccc1Cl)N1CCN(Cc2ccc3c(c2)OC(F)(F)O3)CC1,"Nociceptin receptor (OPRL1, Homo sapiens, UniProt P41146)","radioligand binding, inhibitor",,"10 µM, human, added: [3H]nociceptin",,inhibition,2%
C[C@H]1CN(c2n[nH]c3nc(N[C@H]4CC[C@H](NS(=O)(=O)CCC(F)(F)F)CC4)ncc23)CCO1,"Elongin-B (Homo sapiens, UniProt Q15370)","Kinobeads competition, refers to: TCEB2",,"0.032 µM, unit not given",relative to: vehicle,remaining binding,0.93
COC(=O)[C@]1(O)C[C@@H]2O[C@@]1(C)n1c3ccccc3c3c4c(c5c6ccccc6n2c5c31)C(=O)NC4,"TRPM8 (Homo sapiens, UniProt Q7Z2W7)",antagonist,HEK293,5 µM,,remaining activity,106 ± 2.83%
CC1CC(C(=O)CCl)CO1 (centres unmarked),"UCHL1 (Homo sapiens, UniProt P09936)","covalent, intact protein LC-MS",,12.5 µM,,labelling,16.2%
COc1ccc(N2C(=O)N(c3c(C)cccc3Cl)Cc3cnc(Nc4ccc(C5CCN(C)CC5)cc4OC)nc32)nc1,"MAP2K7 (Homo sapiens, UniProt O14733)",kinase activity,,0.5 µM,,inhibition,-6%
Nc1ncnc2c1ncn2[C@@H]1O[C@H](COP(=O)(O)OP(=O)(O)O)[C@@H](O)[C@H]1O,"Cell cycle histidine kinase CckA, R374A; cytoplasmic region (Caulobacter vibrioides, UniProt Q9X688, R374A)","binding, ITC",,"25 °C, added: without c-di-GMP",,-TΔS,-2.5 kcal/mol
O=C(CO)COP(=O)(O)O,"Triosephosphate isomerase (Leishmania mexicana, UniProt P48499, E66Q)",,,,,Km,1100 µM
COc1cc(/C=C/c2ccc(O)cc2)cc(OC)c1,"O-methyltransferase (Sorghum bicolor, UniProt A0A1B6PFV1, W279A)",isothermal titration calorimetry,,apo protein,,∆H,-11.6 ± 0.167 kcal/mol
